Results collected from several papers.
Compare with care: the assays were run in different laboratories. ± marks the error that the study gave.
UniProt P13569, sequence (whole entry, unmodified, looked up): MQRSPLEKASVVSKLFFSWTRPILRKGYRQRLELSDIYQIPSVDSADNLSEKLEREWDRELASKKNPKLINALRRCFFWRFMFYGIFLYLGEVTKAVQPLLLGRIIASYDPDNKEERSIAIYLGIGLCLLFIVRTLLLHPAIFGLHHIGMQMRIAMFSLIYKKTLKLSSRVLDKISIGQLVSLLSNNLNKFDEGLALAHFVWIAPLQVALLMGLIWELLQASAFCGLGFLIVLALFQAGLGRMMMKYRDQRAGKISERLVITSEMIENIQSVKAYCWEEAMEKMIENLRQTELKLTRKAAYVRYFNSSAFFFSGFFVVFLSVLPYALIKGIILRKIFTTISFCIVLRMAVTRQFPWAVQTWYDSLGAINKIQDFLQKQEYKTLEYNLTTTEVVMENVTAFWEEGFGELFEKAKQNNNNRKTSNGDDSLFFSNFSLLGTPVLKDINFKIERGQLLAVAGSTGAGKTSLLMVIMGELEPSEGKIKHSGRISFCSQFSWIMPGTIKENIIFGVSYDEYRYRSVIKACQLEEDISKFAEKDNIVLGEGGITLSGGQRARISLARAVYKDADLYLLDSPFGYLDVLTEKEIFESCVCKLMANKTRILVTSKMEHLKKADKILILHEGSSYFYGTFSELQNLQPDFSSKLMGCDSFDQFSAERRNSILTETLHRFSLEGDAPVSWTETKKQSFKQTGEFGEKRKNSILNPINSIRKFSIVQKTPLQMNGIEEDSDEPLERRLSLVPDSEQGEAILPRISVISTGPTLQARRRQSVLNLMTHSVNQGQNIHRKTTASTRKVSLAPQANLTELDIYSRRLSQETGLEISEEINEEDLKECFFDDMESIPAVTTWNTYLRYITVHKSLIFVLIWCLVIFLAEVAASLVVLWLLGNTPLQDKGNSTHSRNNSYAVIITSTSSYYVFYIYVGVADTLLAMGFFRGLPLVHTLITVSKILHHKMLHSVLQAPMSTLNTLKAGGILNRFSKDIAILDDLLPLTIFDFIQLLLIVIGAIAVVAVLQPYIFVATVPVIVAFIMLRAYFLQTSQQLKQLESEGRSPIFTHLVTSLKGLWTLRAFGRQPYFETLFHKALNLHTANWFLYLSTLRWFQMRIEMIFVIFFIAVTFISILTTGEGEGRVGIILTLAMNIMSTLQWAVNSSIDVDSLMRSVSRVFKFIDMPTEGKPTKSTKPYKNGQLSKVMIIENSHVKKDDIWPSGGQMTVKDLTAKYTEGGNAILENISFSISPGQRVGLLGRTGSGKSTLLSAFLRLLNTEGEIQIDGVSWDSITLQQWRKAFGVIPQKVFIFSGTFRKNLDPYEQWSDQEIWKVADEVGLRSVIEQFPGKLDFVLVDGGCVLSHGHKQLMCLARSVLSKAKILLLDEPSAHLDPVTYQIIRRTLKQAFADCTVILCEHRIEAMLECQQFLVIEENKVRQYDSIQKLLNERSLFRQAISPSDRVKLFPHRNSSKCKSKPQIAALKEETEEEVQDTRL

SMILES | tested on | assay | system | setting | scale | measurement | value
CC(C)C[C@@H](/C=C/C(F)(F)C(=O)NC1CC(C)(C)N([O])C(C)(C)C1)NC(=O)OC(C)(C)C |  | metabolic stability | male mouse, liver microsomes | 1 h |  | compound remaining | 27%
CC(C)(CCCC/C=C/CCCCCC(C)(C)C(=O)O)C(=O)O |  |  | rhesus monkey, male, hyperlipidaemic, plasma | oral, 20 mg/kg, first dose |  | Tmax | 1.33 ± 0.58 h
N=C(N)NCCC[C@@H]1NC(=O)[C@H](CCCCNC(=O)CC[C@H](NC(=O)CCOCCOCCOCCOCCNC(=O)CN2CCN(CC(=O)O)CCN(CC(=O)O)CCN(CC(=O)O)CC2)C(=O)NCCCC[C@@H]2NC(=O)[C@@H](Cc3ccccc3)NC(=O)[C@H](CC(=O)O)NC(=O)CNC(=O)[C@H](CCCNC(=N)N)NC2=O)NC(=O)[C@@H](Cc2ccccc2)NC(=O)[C@H](CC(=O)O)NC(=O)CNC1=O [indium-111 labelled] |  |  | athymic nude mice, female, U-87 MG glioma xenograft, tumour and liver | intravenous, 0.5 h | reference: tumour over liver | tumour to tissue ratio | 2.16 ± 0.39
CCCCC[C@@H]1OC(=O)[C@@H](C)N(C)C(=O)[C@H](CCCCC)OC(=O)[C@@H](C)N(C)C(=O)[C@H](CCCCC)OC(=O)[C@@H](C)N(C)C(=O)[C@H](CCCCC)OC(=O)[C@@H](C)N(C)C1=O |  |  | Caco-2 | 10 µM, 2 h, pH 7.4 |  | efflux ratio | 1.3
C[C@]12CC[C@H](O)CC1CCC1C2[C@H](O)C(=O)[C@]2(C)[C@@H](c3ccc(=O)oc3)CC[C@]12O (stereo partly drawn) |  | sulfation, substrate | pooled human liver cytosol | pH 7.4 |  | CLint | 1 µL/min/mg
CC(C)(C)c1cc(C(C)(C)C)c(-n2cc(-c3cnc4ccccc4c3O)nn2)cc1O | CFTR (Homo sapiens, UniProt P13569, G551D) | short-circuit current, potentiator | FRT CFTR G551D | added: forskolin 10 µM |  | EC50 | inactive
N#Cc1c(O)c(Cl)c(Cl)c(C#N)c1Cl |  |  | human, plasma | dose not given, 0 h, ABCG2 p.Q141K heterozygous | reference: homozygous reference allele | plasma concentration | increased
COc1cc(C(=O)NCCOCCOCCOCCNC(=O)c2ccc([18F])nc2)ccc1NC(=O)C1NC(CC(C)(C)C)C(C#N)(c2ccc(Cl)cc2F)C1c1cccc(Cl)c1F (stereo not drawn) | HepG2 tumour model |  | host not given, spleen | 2 h, tumour-bearing |  | tracer uptake | 0.79 %ID/g
CC(C)[C@H](NC(=O)[C@H](Cc1c[nH]c2ccccc12)NC(=O)[C@H](Cc1ccccc1)NC(=O)[C@@H](NC(=O)[C@@H](NC(=O)[C@H](CCCCN)NC(=O)[C@@H](N)CCCCN)C(C)C)C(C)C)C(=O)N[C@@H](CCCCN)C(=O)N[C@@H](Cc1ccccc1)C(=O)N[C@@H](CCCCN)C(N)=O |  | ELISA, measured: IL-2 | mouse, blood | intravenous, 500 µg/kg, 5 days |  | cytokine level | 10.8 ± 0.95 pg/mL
CCCC(=O)OC1O[C@@H]2O[C@@]3(C)CC[C@H]4[C@H](C)CCC([C@H]1C)[C@@]24OO3 (stereo partly drawn) |  |  | Tg(fli1:EGFP) zebrafish embryos | 5.0 µg/mL, up to 48 hpf |  | dead embryos | 2 count
[11CH3]n1c(=O)n(CCCO)c(=O)c2c1nc(Oc1cccc(OC(F)(F)F)c1)n2Cc1ccc(Cl)cc1 |  | ex vivo biodistribution | Sprague Dawley rat, thymus | 5 min post injection |  | tracer uptake | 0.52 ± 0.16 %ID/g
O=C(NC1CCCCC1)Oc1ccc(O)c(-c2ccccc2)c1 |  |  | rat plasma |  |  | log hydrolysis rate constant | -3.14
CCC(=O)N(C)c1ccc(Cl)c(Cl)c1 | Salmonella typhimurium | Ames test | TA98 | 0.05 mg/plate, without S9 |  | revertants | 28 ± 8.1 revertants/plate
CCCCCCCCCCCCC(=O)O.O=C1CCCC2C3CCCN4CCCC(CN12)C34 (stereo not drawn) |  | shake-flask | simulated intestinal fluid | pH 6.8, 37 °C |  | log octanol-water partition coefficient | 0.26
C[C@H](NCc1ccc(-c2ccc(C(F)(F)F)cc2)cc1)C(N)=O |  |  | Sprague Dawley rat | oral, 1000 mg/kg single dose |  | toxicity | not toxic
COC(=O)C[C@](O)(CCCC(C)(C)OC(C)=O)C(=O)O[C@@H]1C(OC)=C[C@]23CCCN2CCc2cc4c(cc2[C@H]13)OCO4 |  |  | CD1 mouse, large intestine | subcutaneous, 1 mg/kg, 2 h |  | tissue concentration | 221 ng/mL
O=C(NCCCCn1ccc2ccccc21)Oc1ccccc1 |  |  | porcine plasma | 20 µM, 30 min |  | parent remaining | 82 ± 9%
CN(C)CC1CCCCC1(O)c1cccc(O)c1 (stereo not drawn) |  |  | Caco-2 | 50 µM, 3 h, pH 7.4 |  | efflux ratio | 1.1
CCNc1cc2[o+]c3cc(NCC)c(C)cc3c(-c3ccccc3C(=O)OCCOCC[18F])c2cc1C |  | PET | rat | 55 min p.i. |  | heart to liver ratio | ~4.5
CN[C@](C)(C[18F])C(=O)O | MDA-MB-468 tumour model |  | host not given, tumour | 30 min, tumour-bearing |  | tracer uptake | 2.3 %ID/g
CCC(C)C(=O)OC1C2C3(C)CCC(OC4CC(OC)C(OC5OC(C)C(O)C(OC)C5O)C(C)O4)CC3CCC23OC32CCC(C(C)=O)C2(C)C1OC(C)=O (stereo not drawn) |  |  | Caco-2 | 10 µM |  | efflux ratio | 1.01
CC(C)C[C@H](NC(=O)CN)C(=O)NCC(=O)N[C@@H](CCCCN)C(=O)N[C@@H](CC(C)C)C(=O)N[C@@H](CC(C)C)C(=O)N[C@@H](Cc1c[nH]cn1)C(=O)N[C@@H](C)C(=O)N[C@@H](C)C(=O)N[C@@H](CCCCN)C(=O)N[C@@H](CCCCN)C(=O)N[C@@H](CC(C)C)C(=O)NCC(=O)N[C@@H](CCCCN)C(=O)N[C@@H](C)C(=O)N[C@@H](Cc1c[nH]c2ccccc12)C(=O)N[C@@H](CC(C)C)C(=O)NCC(=O)N[C@@H](CCC(=O)O)C(=O)N[C@@H](CC(C)C)C(=O)N[C@@H](CC(C)C)C(=O)N[C@@H](C)C(=O)N[C@@H](C)C(=O)O |  | circular dichroism | POPC/POPG 1:1 vesicles | 20 µM |  | helicity | 40%
N=C(N)NCCC[C@@H]1NC(=O)[C@H](CCCCNC(=O)CCOCCOCCOCCOCCNC(=O)CN2CCN(CC(=O)O)CCN(CC(=O)O)CCN(CC(=O)O)CC2)NC(=O)[C@@H](Cc2ccccc2)NC(=O)[C@H](CC(=O)O)NC(=O)CNC1=O [indium-111 labelled] |  |  | athymic nude mice, female, U-87 MG glioma xenograft, tumour and heart | intravenous, 24 h | reference: tumour over heart | tumour to tissue ratio | 9.91 ± 0.73
CSCC[C@H](NC(=O)[C@H](CC(N)=O)NC(=O)[C@@H](N)Cc1ccccc1)C(=O)N[C@@H](CCC(N)=O)C(=O)N[C@@H](C)C(=O)N[C@@H](CCC(N)=O)C(=O)N[C@@H](CCCNC(=N)N)C(=O)N[C@@H](CCCNC(=N)N)C(=O)N[C@@H](Cc1ccccc1)C(=O)N[C@@H](Cc1ccc(O)cc1)C(=O)N[C@@H](CCC(=O)O)C(=O)N[C@@H](C)C(=O)N[C@@H](CC(C)C)C(=O)N[C@@H](Cc1c[nH]cn1)C(=O)N[C@@H](CC(=O)O)C(=O)NCC(=O)NCC(=O)NCC(=O)NCC(=O)N[C@@H](CO)C(=O)N[C@@H](C)C(=O)N[C@@H](CCC(=O)O)C(=O)N[C@@H](C)C(=O)N[C@@H](CCC(=O)O)C(=O)N[C@@H](C)C(=O)N[C@@H](CCCCN)C(=O)N[C@@H](C)C(=O)N[C@@H](CCCCN)C(=O)N[C@@H](C)C(=O)N[C@@H](CCC(=O)O)C(=O)N[C@@H](C)C(=O)N[C@@H](CCC(=O)O)C(=O)N[C@@H](C)C(=O)N[C@@H](CCCCN)C(=O)N[C@@H](C)C(=O)N[C@@H](CCCCN)C(=O)O |  | TEM | PBS | 0.05 mg/mL |  | fibril width, first population | 56.3 ± 18.1 nm
CCCCCCCC/C=C\CCCCCCCCOP(O)(O)=S.N |  |  | mouse, female, irradiated | sc, dose not given, 15.6 Gy partial-body, dosed 24 h after |  | AUC(0-inf) | 1590 ng·h/mL
CC(C)[C@H](NC(=O)CNC(=O)[C@H](CCC(N)=O)NC(=O)[C@H](C)N)C(=O)O |  |  | human | intravenous infusion, 15 mg/kg/h, 2 h infusion |  | subjects with any adverse event | 16.7%
O=C(O)CCC(NP(=O)(O)OCCC[C@@H](NC(=O)CCC(NC(=O)CCCCCNC(=O)c1ccc([18F])cc1)C(=O)O)C(=O)O)C(=O)O (stereo partly drawn) | CWR22Rv1 tumour model |  | host not given, muscle | intravenous, 1 h, tumour-bearing |  | tracer uptake | 0.12 %ID/g
CC(C)C[C@H](NC(=O)[C@H](CCCCN)NC(=O)[C@H](CCC(=O)O)NC(=O)[C@H](C)NC(=O)[C@@H](NC(=O)[C@H](CCCCN)NC(=O)[C@H](CC(=O)O)NC(=O)[C@H](Cc1ccc(O)cc1)NC(=O)[C@H](Cc1ccccc1)NC(=O)[C@H](C)NC(=O)[C@H](CCCCN)NC(=O)[C@H](CC(C)C)NC(=O)[C@H](Cc1c[nH]c2ccccc12)NC(=O)[C@@H](N)CC(=O)O)C(C)C)C(=O)N[C@@H](CCCCN)C(=O)N[C@@H](CCC(=O)O)C(=O)N[C@@H](C)C(=O)N[C@@H](Cc1ccccc1)C(=O)N1CCC[C@H]1C(=O)N[C@@H](CC(=O)O)C(=O)N[C@@H](Cc1c[nH]c2ccccc12)C(=O)N[C@@H](C)C(=O)N[C@@H](CCCCN)C(=O)N[C@@H](C)C(=O)N[C@@H](C)C(=O)N[C@@H](Cc1ccc(O)cc1)C(=O)N[C@@H](CC(=O)O)C(=O)N[C@@H](CCCCN)C(=O)N[C@@H](C)C(=O)N[C@@H](C)C(=O)N[C@@H](CCC(=O)O)C(=O)N[C@@H](CCCCN)C(=O)N[C@@H](C)C(=O)N[C@@H](CCCCN)C(=O)N[C@@H](CCC(=O)O)C(=O)N[C@@H](C)C(=O)N[C@@H](C)C(=O)O |  |  | cynomolgus monkey female, plasma | intravenous infusion, 8 mg/kg, day 1, 30 min infusion |  | Tmax | 0 h
CC1=CC=c2ccc3c4c2[N]1[Re](=[C]=O)(=[C]=O)(=[C]=O)([C]#[N+]c1ccc(Cl)cc1)[N]4C(C)=CC=3.O=S(=O)([O-])C(F)(F)F |  |  | PBS | 10 µM, air-equilibrated |  | luminescence lifetime | 1.3 µs
C[C@@](O)(C(F)F)[C@H](NC(=O)c1ccc(C#CC#CC2CC2)cc1)C(=O)NO |  |  | dog, plasma | oral, 50 mg/kg |  | AUC(0-inf) | 19400 ng·h/mL

A few entries again:
SMILES | tested on | assay | system | setting | scale | measurement | value
O=C(O)CCC(NP(=O)(O)OCCC[C@@H](NC(=O)CCC(NC(=O)CCCCCNC(=O)c1ccc([18F])cc1)C(=O)O)C(=O)O)C(=O)O (stereo partly drawn) | CWR22Rv1 tumour model |  | host not given, muscle | intravenous, 1 h, tumour-bearing |  | tracer uptake | 0.12 %ID/g
CC(C)(CCCC/C=C/CCCCCC(C)(C)C(=O)O)C(=O)O |  |  | rhesus monkey, male, hyperlipidaemic, plasma | oral, 20 mg/kg, first dose |  | Tmax | 1.33 ± 0.58 h
CC(C)C[C@H](NC(=O)[C@H](CCCCN)NC(=O)[C@H](CCC(=O)O)NC(=O)[C@H](C)NC(=O)[C@@H](NC(=O)[C@H](CCCCN)NC(=O)[C@H](CC(=O)O)NC(=O)[C@H](Cc1ccc(O)cc1)NC(=O)[C@H](Cc1ccccc1)NC(=O)[C@H](C)NC(=O)[C@H](CCCCN)NC(=O)[C@H](CC(C)C)NC(=O)[C@H](Cc1c[nH]c2ccccc12)NC(=O)[C@@H](N)CC(=O)O)C(C)C)C(=O)N[C@@H](CCCCN)C(=O)N[C@@H](CCC(=O)O)C(=O)N[C@@H](C)C(=O)N[C@@H](Cc1ccccc1)C(=O)N1CCC[C@H]1C(=O)N[C@@H](CC(=O)O)C(=O)N[C@@H](Cc1c[nH]c2ccccc12)C(=O)N[C@@H](C)C(=O)N[C@@H](CCCCN)C(=O)N[C@@H](C)C(=O)N[C@@H](C)C(=O)N[C@@H](Cc1ccc(O)cc1)C(=O)N[C@@H](CC(=O)O)C(=O)N[C@@H](CCCCN)C(=O)N[C@@H](C)C(=O)N[C@@H](C)C(=O)N[C@@H](CCC(=O)O)C(=O)N[C@@H](CCCCN)C(=O)N[C@@H](C)C(=O)N[C@@H](CCCCN)C(=O)N[C@@H](CCC(=O)O)C(=O)N[C@@H](C)C(=O)N[C@@H](C)C(=O)O |  |  | cynomolgus monkey female, plasma | intravenous infusion, 8 mg/kg, day 1, 30 min infusion |  | Tmax | 0 h
CN(C)CC1CCCCC1(O)c1cccc(O)c1 (stereo not drawn) |  |  | Caco-2 | 50 µM, 3 h, pH 7.4 |  | efflux ratio | 1.1
